Measured values pooled from the literature.
Numbered parts are unrelated; each lists some results of a single study. Positions count from the first letter of the parent shown.
Sequence of UniProt Q9ZTX8 (whole entry, looked up): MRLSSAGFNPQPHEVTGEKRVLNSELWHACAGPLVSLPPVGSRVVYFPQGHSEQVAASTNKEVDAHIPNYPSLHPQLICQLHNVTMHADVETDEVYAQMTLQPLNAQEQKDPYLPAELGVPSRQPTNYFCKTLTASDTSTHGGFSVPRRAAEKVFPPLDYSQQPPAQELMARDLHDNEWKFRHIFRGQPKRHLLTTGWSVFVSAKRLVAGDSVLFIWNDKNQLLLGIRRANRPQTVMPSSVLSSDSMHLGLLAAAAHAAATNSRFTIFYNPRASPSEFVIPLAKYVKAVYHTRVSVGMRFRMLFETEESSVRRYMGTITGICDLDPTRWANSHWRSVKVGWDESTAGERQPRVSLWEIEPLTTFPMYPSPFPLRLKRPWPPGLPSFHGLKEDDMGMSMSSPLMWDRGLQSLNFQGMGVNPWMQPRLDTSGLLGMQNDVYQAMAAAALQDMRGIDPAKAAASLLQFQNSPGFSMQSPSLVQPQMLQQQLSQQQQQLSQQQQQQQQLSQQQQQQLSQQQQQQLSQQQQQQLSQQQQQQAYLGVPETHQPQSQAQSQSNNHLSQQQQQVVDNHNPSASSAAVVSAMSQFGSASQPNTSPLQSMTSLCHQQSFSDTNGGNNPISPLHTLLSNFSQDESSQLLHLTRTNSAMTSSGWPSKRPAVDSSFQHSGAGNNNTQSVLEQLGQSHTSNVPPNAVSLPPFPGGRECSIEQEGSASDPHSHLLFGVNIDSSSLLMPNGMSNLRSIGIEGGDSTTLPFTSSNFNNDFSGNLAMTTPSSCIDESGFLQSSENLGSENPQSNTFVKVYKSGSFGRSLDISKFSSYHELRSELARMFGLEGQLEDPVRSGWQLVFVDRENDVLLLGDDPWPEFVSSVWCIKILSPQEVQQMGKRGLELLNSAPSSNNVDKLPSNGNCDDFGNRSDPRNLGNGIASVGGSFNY
Sequence of UniProt Q9FKM7 (whole entry, looked up): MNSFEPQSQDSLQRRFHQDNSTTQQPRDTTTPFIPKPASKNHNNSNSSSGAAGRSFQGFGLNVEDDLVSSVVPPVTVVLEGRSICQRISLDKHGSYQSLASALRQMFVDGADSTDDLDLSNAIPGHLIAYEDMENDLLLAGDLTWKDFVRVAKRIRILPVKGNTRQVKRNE
Sequence of UniProt P42336 (whole entry, unmodified, looked up): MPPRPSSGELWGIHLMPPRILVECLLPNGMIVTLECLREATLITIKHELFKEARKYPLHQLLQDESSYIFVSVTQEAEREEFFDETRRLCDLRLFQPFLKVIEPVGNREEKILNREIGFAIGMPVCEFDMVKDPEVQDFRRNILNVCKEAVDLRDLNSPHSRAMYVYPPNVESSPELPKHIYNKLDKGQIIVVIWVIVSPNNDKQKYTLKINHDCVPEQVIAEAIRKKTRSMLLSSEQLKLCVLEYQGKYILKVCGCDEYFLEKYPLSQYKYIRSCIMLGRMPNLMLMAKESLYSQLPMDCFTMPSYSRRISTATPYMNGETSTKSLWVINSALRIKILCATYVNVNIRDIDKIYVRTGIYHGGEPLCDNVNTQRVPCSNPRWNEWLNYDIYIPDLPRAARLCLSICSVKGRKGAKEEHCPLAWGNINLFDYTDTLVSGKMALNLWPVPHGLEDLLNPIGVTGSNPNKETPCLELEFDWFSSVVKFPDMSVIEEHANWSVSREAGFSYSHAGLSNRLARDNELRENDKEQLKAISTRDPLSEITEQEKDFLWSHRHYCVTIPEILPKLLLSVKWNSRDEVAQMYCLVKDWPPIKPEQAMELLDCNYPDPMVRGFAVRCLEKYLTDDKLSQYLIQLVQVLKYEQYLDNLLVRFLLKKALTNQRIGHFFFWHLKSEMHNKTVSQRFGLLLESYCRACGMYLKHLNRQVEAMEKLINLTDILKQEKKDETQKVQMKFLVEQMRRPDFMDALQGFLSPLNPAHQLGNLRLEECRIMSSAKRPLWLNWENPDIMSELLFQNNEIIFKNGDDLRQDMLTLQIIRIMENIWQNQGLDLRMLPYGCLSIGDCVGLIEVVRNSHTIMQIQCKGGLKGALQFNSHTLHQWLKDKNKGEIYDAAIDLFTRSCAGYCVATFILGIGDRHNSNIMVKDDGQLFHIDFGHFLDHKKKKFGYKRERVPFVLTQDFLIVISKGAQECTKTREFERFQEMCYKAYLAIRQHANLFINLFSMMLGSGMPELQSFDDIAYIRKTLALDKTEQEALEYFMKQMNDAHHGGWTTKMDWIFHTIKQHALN
Sequence of UniProt O15264 (whole entry, looked up): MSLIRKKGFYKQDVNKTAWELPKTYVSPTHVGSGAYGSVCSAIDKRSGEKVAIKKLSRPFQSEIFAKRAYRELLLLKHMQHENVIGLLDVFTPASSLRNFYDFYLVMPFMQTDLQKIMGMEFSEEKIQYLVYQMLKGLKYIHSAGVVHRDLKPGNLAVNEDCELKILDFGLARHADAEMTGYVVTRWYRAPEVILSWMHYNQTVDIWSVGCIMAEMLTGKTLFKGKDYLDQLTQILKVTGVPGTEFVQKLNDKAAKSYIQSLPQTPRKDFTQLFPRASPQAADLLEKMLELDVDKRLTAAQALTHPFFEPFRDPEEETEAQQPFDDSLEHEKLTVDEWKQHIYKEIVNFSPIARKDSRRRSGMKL
Sequence of UniProt O24408 (whole entry, looked up): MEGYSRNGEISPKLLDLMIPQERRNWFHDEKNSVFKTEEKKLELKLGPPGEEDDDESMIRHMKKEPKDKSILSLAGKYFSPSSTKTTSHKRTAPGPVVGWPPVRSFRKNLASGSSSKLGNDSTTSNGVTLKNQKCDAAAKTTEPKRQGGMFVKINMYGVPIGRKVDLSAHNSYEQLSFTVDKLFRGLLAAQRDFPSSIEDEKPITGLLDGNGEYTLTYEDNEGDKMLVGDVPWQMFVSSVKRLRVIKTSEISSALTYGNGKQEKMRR
Sequence of UniProt P11802 (whole entry, looked up): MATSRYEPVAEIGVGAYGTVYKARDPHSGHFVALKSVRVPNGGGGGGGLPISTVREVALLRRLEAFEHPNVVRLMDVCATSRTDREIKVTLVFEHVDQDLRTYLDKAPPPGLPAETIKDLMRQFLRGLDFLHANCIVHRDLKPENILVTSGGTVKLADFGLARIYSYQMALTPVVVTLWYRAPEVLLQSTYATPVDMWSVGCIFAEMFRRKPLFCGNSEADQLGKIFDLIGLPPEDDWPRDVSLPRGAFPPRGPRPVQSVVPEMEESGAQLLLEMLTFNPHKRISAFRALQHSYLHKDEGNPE
Sequence of UniProt P33078 (whole entry, looked up): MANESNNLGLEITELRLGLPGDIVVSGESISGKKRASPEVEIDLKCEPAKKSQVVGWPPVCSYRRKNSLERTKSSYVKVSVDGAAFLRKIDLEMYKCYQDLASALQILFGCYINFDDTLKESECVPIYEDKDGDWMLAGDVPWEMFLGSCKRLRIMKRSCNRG
Sequence of UniProt Q9FX25 (whole entry, looked up): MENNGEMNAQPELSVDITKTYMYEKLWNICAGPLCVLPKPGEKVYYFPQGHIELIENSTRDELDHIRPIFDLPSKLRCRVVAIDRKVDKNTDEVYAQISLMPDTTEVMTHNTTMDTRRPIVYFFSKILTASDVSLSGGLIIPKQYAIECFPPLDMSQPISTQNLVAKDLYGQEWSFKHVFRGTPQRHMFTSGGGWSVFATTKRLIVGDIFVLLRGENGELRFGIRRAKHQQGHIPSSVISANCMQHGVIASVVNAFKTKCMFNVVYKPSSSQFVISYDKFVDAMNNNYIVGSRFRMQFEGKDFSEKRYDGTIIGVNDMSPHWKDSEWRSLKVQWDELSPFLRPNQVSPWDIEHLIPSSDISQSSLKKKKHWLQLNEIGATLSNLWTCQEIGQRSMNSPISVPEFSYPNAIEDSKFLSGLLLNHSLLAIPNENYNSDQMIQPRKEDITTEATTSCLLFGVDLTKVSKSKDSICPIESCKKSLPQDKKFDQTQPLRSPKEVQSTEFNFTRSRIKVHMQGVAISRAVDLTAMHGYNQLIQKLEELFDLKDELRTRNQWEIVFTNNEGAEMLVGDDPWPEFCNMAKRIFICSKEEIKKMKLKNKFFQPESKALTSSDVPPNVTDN
Sequence of UniProt Q9XED8 (whole entry, looked up): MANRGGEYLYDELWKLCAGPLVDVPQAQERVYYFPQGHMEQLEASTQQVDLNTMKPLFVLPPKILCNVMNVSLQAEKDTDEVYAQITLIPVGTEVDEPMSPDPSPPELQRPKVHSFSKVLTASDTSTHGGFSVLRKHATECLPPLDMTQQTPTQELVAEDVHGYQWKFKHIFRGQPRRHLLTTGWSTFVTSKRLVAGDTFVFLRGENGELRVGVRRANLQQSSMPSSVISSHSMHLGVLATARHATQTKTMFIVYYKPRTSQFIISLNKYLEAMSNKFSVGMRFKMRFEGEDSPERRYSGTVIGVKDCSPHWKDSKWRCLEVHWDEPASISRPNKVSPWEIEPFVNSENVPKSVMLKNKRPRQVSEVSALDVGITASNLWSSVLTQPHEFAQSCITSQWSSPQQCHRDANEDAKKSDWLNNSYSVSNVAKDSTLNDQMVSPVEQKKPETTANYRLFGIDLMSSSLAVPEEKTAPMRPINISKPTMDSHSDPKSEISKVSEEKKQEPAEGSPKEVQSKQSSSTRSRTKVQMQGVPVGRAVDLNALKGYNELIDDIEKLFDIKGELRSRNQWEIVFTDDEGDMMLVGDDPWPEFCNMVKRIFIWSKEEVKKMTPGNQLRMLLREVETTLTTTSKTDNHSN

Study 1 — Molecule: B1 (IAA2); method: two-hybrid; direction: higher = firmer interaction
B1: IAA2 (Arabidopsis thaliana, UniProt P49678); chain MAYEKVNELNLKDTELCLGLPGRTEKIKEEQEVSCVKSNNKRLFEETRDEEESTPPTKTQIVGWPPVRSSRKNNNSVSYVKVSMDGAPYLRKIDLKTYKNYPELLKALENMFKVMIGEYCEREGYKGSGFVPTYEDKDGDWMLVGDVPWDMFSSSCKRLRIMKGSDAPALDSSL
| partner | setting | how to read | positive tests |
| --- | --- | --- | --- |
| ARF13 (Arabidopsis thaliana, UniProt Q9FX25) |  | baseline: out of 4 tests | 1 |
| IAA5 (Arabidopsis thaliana, UniProt P33078) |  | baseline: out of 4 tests | 2 |
| IAA26 (Arabidopsis thaliana, UniProt Q8LAL2) |  | baseline: out of 4 tests | 0 |
| IAA18 (Arabidopsis thaliana, UniProt O24408) |  | baseline: out of 4 tests | 1 |
| ARF5 788-902 (Arabidopsis thaliana, UniProt P93024) |  | baseline: out of 4 tests | 3 |
| ARF6 790-935 (Arabidopsis thaliana, UniProt Q9ZTX8) |  | baseline: out of 4 tests | 3 |
| IAA33 (Arabidopsis thaliana, UniProt Q9FKM7) |  | baseline: out of 4 tests | 3 |
| ARF9 519-638 (Arabidopsis thaliana, UniProt Q9XED8) | weak activation fusion | baseline: out of 2 tests | 2 |

Study 2 — method: DHFR PCA, dose-response; medium: yeast; with: (+)-ABA, dose series; direction: lower = more sensitive
Target: ABI1, truncated, D143A, DHFR fusion (Arabidopsis thaliana, UniProt P49597)
Notes: Hill fit, not affinity, not high confidence
Starting sequence: PYL1, truncated, DHFR fusion (Arabidopsis thaliana, UniProt Q8VZS8); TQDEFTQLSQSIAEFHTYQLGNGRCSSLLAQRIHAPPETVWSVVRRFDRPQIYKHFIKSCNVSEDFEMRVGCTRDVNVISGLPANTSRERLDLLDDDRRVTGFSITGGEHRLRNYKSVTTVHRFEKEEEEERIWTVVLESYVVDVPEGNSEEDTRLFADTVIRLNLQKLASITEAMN
| Substitution | ABA EC50 [µM] |
| --- | --- |
| G102P | 11.1 |
| N149L | 291 |
| I57D | 0.951 |
| K168N | 0.618 |
| I162Q | 901 |
| S140Y | 304 |
| N149V | 105 |
| R90D | 721 |

Study 3 — read-out: enzyme activity; action: inhibitor; tested at: 0.5 µM; baseline: control
Target: Mitogen-activated protein kinase 14 (MAPK14, Homo sapiens, UniProt Q16539)
Sequence of UniProt Q16539 (whole entry, looked up): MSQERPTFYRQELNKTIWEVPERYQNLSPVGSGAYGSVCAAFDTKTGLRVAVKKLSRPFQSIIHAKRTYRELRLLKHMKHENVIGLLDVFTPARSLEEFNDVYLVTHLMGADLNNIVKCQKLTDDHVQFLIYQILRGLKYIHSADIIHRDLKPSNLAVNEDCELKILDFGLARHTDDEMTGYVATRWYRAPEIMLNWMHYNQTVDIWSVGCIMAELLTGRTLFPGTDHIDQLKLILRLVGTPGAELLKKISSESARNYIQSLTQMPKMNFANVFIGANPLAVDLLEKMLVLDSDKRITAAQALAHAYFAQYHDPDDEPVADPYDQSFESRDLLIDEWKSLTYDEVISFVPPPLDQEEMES
| Compound | remaining activity [%] |
| --- | --- |
| CN(C)c1ccc(C=C2C(=O)Nc3ccccc32)cc1 | 92.4 |
| Cc1ccc(NC(=O)c2ccc(CN3CCN(C)CC3)cc2)cc1Nc1nc(-c2cccnc2)cs1 | 98.1 |
| Cn1c2ccccc2c2c3c(c4c5ccccc5n(CCC#N)c4c21)CNC3=O | 93.5 |
| Cc1ccc(Nc2nccc(N(C)c3ccc4c(C)n(C)nc4c3)n2)cc1S(N)(=O)=O | 91.2 |
| COc1cc2ncnc(Nc3ccc(Oc4ccccc4)cc3)c2cc1OC | 103 |
| O=C(Nc1cccc(Nc2cc(Nc3cccc(C(F)(F)F)c3)ncn2)c1)C1CC1 | 98.2 |
| COc1ccc(CNC(=O)Nc2ncc([N+](=O)[O-])s2)cc1 | 104 |
| O=C1NC(=O)C(c2cn(CCCO)c3ncccc23)=C1c1cnccn1 | 107 |
| O=C(CCCc1ccc(-c2ccccc2F)cc1)Nc1ccc(O)cc1 | 89 |
| O=S(=O)(c1cccc2cnccc12)N1CCCNCC1 | 104 |
| N#CC(C#N)=C(N)/C(C#N)=C/c1ccc(O)cc1 | 104 |
| Cc1cccc(-c2[nH]c(C(C)(C)C)nc2-c2ccc3c(c2)OCO3)n1 | 89.7 |
| Cn1sc(=O)n(Cc2ccccc2)c1=O | 101 |
| Cc1nc(-c2ccccc2)c(-c2ccncc2)o1 | 76.3 |
| COc1ccc(C(=O)Nc2sc3c(c2C(N)=O)CCCC3)cc1OC | 97.5 |

Study 4 — read-out: cell-free assay; method: competition with immobilised ligand; tested at: 0.1 µM
Compound: CS(=O)(=O)N1CCCC(NC(=O)[C@H](CCC2CCCCC2)NC(=O)c2ccc(CNc3ncnc4c3nnn4-c3ccccc3)cc2)C1 (stereo partly drawn)
| target | remaining binding [%] |
| --- | --- |
| Mitogen-activated protein kinase kinase kinase 14 (MAP3K14, Homo sapiens, UniProt Q99558) | 83 |
| Phosphatidylinositol 4,5-bisphosphate 3-kinase catalytic subunit alpha isoform (PIK3CA, Homo sapiens, UniProt P42336, E545A) | 100 |
| Cyclin-dependent kinase 4 (CDK4, Homo sapiens, UniProt P11802) | 91 |
| Mitogen-activated protein kinase kinase kinase kinase 3 (MAP4K3, Homo sapiens, UniProt Q8IVH8) | 75 |
| Mitogen-activated protein kinase 13 (MAPK13, Homo sapiens, UniProt O15264) | 100 |

Some of these lines once more (study 1):
| partner | setting | how to read | positive tests |
| --- | --- | --- | --- |
| ARF6 790-935 (Arabidopsis thaliana, UniProt Q9ZTX8) |  | baseline: out of 4 tests | 3 |
| ARF5 788-902 (Arabidopsis thaliana, UniProt P93024) |  | baseline: out of 4 tests | 3 |
